Assay results gathered from unrelated publications.
Every numbered part comes from another study and shows a few of its results, in no order. Changes are numbered by the printed parent chain.
Chain of UniProt Q9ZSY8 (whole entry, looked up): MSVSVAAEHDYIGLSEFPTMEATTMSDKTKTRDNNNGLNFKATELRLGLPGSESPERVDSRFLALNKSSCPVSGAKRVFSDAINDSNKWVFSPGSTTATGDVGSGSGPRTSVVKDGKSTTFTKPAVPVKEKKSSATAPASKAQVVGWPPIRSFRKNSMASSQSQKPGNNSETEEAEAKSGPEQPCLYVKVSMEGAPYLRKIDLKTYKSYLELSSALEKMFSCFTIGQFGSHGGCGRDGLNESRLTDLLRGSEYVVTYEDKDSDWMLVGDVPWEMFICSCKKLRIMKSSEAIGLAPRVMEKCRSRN
Chain of UniProt P78368 (whole entry, looked up): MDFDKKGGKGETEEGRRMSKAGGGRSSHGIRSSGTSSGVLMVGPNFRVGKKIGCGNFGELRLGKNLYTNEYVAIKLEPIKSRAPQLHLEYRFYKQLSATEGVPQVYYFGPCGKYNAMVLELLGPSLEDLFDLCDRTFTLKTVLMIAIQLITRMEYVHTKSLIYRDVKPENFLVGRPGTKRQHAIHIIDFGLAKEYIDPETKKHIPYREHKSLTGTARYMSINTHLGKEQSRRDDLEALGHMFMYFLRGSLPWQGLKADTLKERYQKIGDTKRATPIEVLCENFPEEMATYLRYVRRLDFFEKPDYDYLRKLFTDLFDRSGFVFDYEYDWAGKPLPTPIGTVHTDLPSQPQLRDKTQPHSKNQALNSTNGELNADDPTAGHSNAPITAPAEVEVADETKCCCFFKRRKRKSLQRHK
Chain of UniProt Q9FX25 (whole entry, looked up): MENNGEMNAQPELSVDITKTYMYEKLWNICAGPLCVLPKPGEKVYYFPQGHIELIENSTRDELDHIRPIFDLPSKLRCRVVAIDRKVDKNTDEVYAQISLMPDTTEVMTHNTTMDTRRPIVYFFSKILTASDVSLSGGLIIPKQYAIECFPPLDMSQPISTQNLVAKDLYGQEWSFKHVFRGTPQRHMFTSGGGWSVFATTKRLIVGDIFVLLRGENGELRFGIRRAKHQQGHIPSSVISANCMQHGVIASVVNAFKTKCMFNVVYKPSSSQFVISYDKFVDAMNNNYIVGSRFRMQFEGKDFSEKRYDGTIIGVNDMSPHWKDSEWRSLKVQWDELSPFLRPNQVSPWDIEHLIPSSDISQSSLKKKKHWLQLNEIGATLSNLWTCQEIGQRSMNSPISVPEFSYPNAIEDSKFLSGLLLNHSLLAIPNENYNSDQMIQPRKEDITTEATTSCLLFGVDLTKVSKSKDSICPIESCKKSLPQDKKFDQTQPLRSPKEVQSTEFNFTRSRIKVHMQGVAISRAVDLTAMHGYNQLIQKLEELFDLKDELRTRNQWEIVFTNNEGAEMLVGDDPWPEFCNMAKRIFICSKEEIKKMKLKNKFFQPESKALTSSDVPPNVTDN
Chain of UniProt Q9XFM0 (whole entry, looked up): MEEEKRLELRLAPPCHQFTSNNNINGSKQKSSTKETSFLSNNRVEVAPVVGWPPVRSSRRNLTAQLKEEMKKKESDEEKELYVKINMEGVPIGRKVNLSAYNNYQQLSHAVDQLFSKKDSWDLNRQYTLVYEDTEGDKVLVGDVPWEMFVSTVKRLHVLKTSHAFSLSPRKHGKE
Chain of UniProt Q93YR9 (whole entry, looked up): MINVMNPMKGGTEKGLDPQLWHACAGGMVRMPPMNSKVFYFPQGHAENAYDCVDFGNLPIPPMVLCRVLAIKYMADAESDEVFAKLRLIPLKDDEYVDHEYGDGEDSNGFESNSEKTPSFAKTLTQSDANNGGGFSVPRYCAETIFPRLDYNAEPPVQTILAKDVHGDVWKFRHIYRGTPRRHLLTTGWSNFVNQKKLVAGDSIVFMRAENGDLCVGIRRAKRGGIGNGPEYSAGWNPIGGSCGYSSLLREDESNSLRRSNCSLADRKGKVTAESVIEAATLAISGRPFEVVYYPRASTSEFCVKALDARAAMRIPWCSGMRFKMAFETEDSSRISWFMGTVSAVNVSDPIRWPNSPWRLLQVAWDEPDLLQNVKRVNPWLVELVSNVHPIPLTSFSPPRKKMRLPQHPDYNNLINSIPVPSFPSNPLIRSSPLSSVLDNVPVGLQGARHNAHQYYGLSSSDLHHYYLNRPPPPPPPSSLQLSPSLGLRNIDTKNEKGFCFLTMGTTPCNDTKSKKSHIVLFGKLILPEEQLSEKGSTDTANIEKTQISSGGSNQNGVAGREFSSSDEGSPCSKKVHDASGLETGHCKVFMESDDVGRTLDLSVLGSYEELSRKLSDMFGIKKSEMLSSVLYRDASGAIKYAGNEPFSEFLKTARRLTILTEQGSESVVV
Chain of UniProt Q9ZPY6 (whole entry, looked up): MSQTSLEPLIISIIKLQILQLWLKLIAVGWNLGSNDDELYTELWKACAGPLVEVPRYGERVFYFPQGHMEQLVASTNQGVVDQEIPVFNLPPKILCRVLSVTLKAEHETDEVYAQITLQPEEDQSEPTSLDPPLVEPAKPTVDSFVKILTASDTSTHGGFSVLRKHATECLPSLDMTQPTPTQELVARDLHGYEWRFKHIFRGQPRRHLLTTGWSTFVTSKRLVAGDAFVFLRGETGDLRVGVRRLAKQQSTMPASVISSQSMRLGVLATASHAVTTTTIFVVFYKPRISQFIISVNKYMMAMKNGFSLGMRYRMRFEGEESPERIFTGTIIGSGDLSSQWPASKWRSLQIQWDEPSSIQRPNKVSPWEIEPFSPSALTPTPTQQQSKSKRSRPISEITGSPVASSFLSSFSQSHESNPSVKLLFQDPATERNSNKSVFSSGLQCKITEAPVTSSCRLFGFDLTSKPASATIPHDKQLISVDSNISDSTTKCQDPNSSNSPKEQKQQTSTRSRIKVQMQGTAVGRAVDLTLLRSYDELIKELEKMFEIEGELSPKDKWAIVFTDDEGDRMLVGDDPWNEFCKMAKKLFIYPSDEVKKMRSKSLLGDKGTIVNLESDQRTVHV

Sample 1
Substance: IAA7 (Arabidopsis thaliana, UniProt Q38825)
Chain of UniProt Q38825 (whole entry, looked up): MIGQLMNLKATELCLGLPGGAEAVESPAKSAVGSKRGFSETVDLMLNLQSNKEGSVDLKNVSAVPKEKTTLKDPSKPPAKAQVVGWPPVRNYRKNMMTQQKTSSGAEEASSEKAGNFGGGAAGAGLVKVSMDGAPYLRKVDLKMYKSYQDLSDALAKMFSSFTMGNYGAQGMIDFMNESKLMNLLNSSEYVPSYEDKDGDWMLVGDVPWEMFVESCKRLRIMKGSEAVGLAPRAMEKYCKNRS
Method: two-hybrid
Reading: higher = firmer interaction
| partner | baseline | positive tests |
| --- | --- | --- |
| IAA27 (Arabidopsis thaliana, UniProt Q9ZSY8) | out of 4 tests | 2 |
| ARF11 500-622 (Arabidopsis thaliana, UniProt Q9ZPY6) | out of 4 tests | 1 |
| IAA28 (Arabidopsis thaliana, UniProt Q9XFM0) | out of 3 tests | 2 |
| ARF16 570-670 (Arabidopsis thaliana, UniProt Q93YR9) | out of 4 tests | 0 |
| ARF13 (Arabidopsis thaliana, UniProt Q9FX25) | out of 4 tests | 0 |

Sample 2
Target: TAR DNA-binding protein 43, full length, His tag (TARDBP, Homo sapiens, UniProt Q13148, residues 1-414)
Method: RNA Bind-n-Seq
Form: RNA
Sample: in vitro
Tested at: 20 nM
Notes: 6-mer, flanks averaged, single round
Added: 150 mM KCl
Baseline: input library
Reading: higher = stronger binding
| Oligonucleotide | 6-mer enrichment (R) |
| --- | --- |
| ACUUUA | 0.587 |
| GAAGCC | 0.835 |
| UGUCUG | 0.852 |
| AGCGUU | 0.7 |
| CCGCCG | 0.816 |
| UGCCAU | 0.645 |
| ACCCUG | 0.673 |
| UUGUUC | 0.587 |

Sample 3
Target: CCNA2, cyclin fold, Cln2 fusion (human)
Method: yeast growth competition, sequencing
Sample: yeast
Notes: weak parent motif
Baseline: not given
Reading: higher = stronger binding
Starting sequence: FZR1 docking peptide (human); QDYERRLLRQIVI
| Variant | normalised enrichment score |
| --- | --- |
| QDYERRLLAQIVI [R9A] | 0.244 |
| QDYEKRLLRQIVI [R5K] | 0.228 |
| QDYEARALRQIVI [R5A L7A] | 0.523 |
| ADYERRLLRQIVI [Q1A] | 1.58 |
| QDYERRALRQIVI [L7A] | 1.11 |
| QDYERRLLRQAVI [I11A] | 1.32 |
| QDYERRLLRQIAI [V12A] | 1.19 |
| QDYEKRLFRQIVI [R5K L8F] | 0.67 |

Mixed results
| SMILES | target | effect on | method | tested at | endpoint | result |
| --- | --- | --- | --- | --- | --- | --- |
| CCC(=O)N[C@H]1CC[C@@H](C(=O)N(C)c2ccc(-c3nc4ccccc4o3)cc2)C1 | Casein kinase I isoform gamma-2 (CSNK1G2, Homo sapiens, UniProt P78368) | cell-free assay | competition with immobilised ligand | 1 µM | remaining binding | 100% |

For quick reference, copied from above (sample 3):
| Variant | normalised enrichment score |
| --- | --- |
| QDYEKRLLRQIVI [R5K] | 0.228 |
| QDYERRLLRQAVI [I11A] | 1.32 |
